Assay results pooled from the literature.
Parts stem from different laboratories: compare values within a part only.

Sample 1
Target: RING finger protein unkempt homolog, zinc fingers 1-6, GST-SBP tag (UNK, Homo sapiens, UniProt Q9C0B0, residues 30-357)
Method: RNA Bind-n-Seq
Form: RNA
Sample: in vitro
Concentration: not given
Notes: RNA with constant flanks, ends assumed
Reference: input RNA pool
Reading: higher = stronger binding
Constant ends, left off below: GGGAGUUCUACAGUCCGACGAUC … CAACAGAGGAUUGAGCAUCA
Residues (chain): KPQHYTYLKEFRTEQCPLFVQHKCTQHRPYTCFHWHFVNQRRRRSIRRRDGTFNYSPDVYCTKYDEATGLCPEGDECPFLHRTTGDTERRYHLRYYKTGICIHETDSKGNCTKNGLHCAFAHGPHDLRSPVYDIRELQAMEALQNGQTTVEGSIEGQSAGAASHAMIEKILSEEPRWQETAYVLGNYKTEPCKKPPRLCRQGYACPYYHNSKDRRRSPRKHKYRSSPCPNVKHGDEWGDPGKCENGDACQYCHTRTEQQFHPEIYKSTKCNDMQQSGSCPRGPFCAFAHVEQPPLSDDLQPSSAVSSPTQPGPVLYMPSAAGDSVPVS
Strand	bound/input enrichment
AAUUUUCAUUUCGCUUGUGUUCAUGGUGUGUGCUCCCAACCCCCUUUCCUCCCCUGACCCCUCCGUCCUUCAUUCCCAGUUUUCCGGAAUGAUACUUUAGGAGGAAUAGAUUGUAAAGAG	0.512 ratio
AUGAUCCAACUCAAUGGAUGUCAGCCCAUGGAGAUCAAAGUGCUGGGUCCUUAUACCUUCCGUAUCUGUGACACUUCCAACUUCUCUGACUACAUCCGUGGAGGCAUCGUCAGUCAGGUC	0.0903 ratio
GCUGCACUCCGUAACUCAACAUGGCAUGCCUUUCUCUCCGUAAACUAUUUAGUGAGAUUUUCCGGGACUAUUUUUCAGUAUCUCUGUACCUGUUAAAGGGGGUGCUUUUCGAUCUAAAAA	0.249 ratio
GUUUCUCCAGAGGAAGCAAUCAAAUGUGAAGACAAAUUCACAAAAUCCAAAACUGUUUACCGCAUUCUUCGUCAUGUUGCUGAGGUGUUAGAAUACACCAAGGAUGAGCAGCUGGAAAGC	0.135 ratio
GAAAUGAAGUACUACAUAGUGCAUUUGAAACGCCACUUUAUGUUUCGAAACCAUCUCUGUUCCGUGUUUGAAAUGCUGUCCUAUAAUCUCUAUGAUUUGUUGAGAAACACCAACUUCCGA	0.16 ratio
UGUUUGUGUGUGUGCGUGUGCGUGUGUGUGUGUGUUGGAAUUUCCUAUCUGCCUGGAUAUAUCCGCAGAGUUUGAAUGUAGUUUUGGCCUUUGGCCAUUAGACUUCUAUUAAAAUUCAUU	0.687 ratio
UUACAGAUGCAUGGAAAACAAAGUCUCCAAGAAAACACUUCUGUCUUGAUGGUCUAUGGAAACCGACCUUGAAAAUAAGGUGUCUACAAGGUGUUUUGUGGUUUCUGUAUUUCUUCUUUU	0.103 ratio
GGAGCCAUUGAUGCUGUUCCUGUUGAUGAAAAUCUUUUCACUGGAGAGGAUUUGGAUGAACCCGAAGAAGAAUUAAAUACACUUGAUUUAGAAGAAUGACACCAAACACAUCGCUGAAAA	0.773 ratio

Sample 2
Target: Interferon regulatory factor 5, full length, phosphomimetic (IRF5, Homo sapiens, UniProt Q13568-2, residues 1-514, S451D/S453D/S456D/S462D)
Method: protein-binding microarray
Form: double-stranded DNA, one strand shown
Sample: in vitro
Concentration: 940 nM top
Notes: 60-bp whole probe
Added: salmon DNA 0.4 mg/ml
Reference: random background probes
Reading: higher = stronger binding
Constant ends, left off below: GCCTAGCAC … GTCTTGATTCGCTTGACGCTGCTG
Strand	fitted relative affinity [z-score]
TTAGATTTCAGTTTCAATTAGTGCTAG	3.57
TCACTTTTTGCTTTCTTACTGTGCTAG	2.04
GACGATTTCAGTCACGAGACGTGCTAG	0.236
TTAGGACAGGGGACTGGGTTAGTGCTA	0.194
GACGGTATCGACTTTCGGGGCGTGCTA	4.83
TCTGATTTCTCAAACAGCTCGTGCTAG	0.494
GACGGTATCGGGCATCGGGACGTGCTA	3.42
TCATTTTTTTTTCTACTACTGTGCTAG	1.84
GTCGGTTTCGGGTATCGGGACGTGCTA	11.2
TTAGATATCCGTTTCGATTAGTGCTAG	3.1
TCAGATTTCAGTTTCGATTAGTGCTAG	9.5
TTAGGTATCCTTTTCCATTAGTGCTAG	0.866

Sample 3
Target: Histone acetyltransferase KAT6A, both winged helices, GST fusion (KAT6A, Homo sapiens, UniProt Q92794, residues 1-181)
Method: protein binding microarray
Form: double-stranded DNA, one strand shown
Sample: in vitro
Concentration: not given
Notes: 8-mer, flanks averaged, mean of 2 arrays, mostly near background
Reference: not given
Reading: higher = stronger binding
Target sequence (chain): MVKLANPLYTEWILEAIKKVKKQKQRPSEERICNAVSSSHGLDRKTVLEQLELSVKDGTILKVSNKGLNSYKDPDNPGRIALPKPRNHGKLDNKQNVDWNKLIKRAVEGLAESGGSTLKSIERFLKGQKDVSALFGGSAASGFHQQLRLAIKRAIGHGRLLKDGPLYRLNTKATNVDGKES
Strand	E-score
AGCTCGAC	-0.0955
CTGAATGC	-0.0242
CAACGGAG	0.098
GAGAGACA	-0.251
CGTAGAAG	0.0532
AATGATGT	-0.00571
AATGTTAG	-0.0404
CCCGATCC	-0.0906
AGTGCCCC	-0.00825
CTGCAAAG	-0.096
AAAGGGTA	-0.0865
TAAATCCA	-0.158
GCTACCTA	-0.136
CACGCAAC	0.114
ACCAAATA	-0.094
CCGTTCGC	0.22

Sample 4
Target: UBE2L3 UBC core domain (UniProt P68036)
Sequence of UniProt P68036 (whole entry, looked up): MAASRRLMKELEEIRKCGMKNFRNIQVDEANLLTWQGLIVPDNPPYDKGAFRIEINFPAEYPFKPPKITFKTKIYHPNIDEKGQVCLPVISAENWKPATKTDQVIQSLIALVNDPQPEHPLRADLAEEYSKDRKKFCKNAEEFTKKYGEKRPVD
Method: yeast two-hybrid
Sample: yeast
Notes: mostly zero background
Reference: not given
Reading: higher = stronger interaction
B1: TRIM10 RING domain (UniProt Q9UDY6); chain SVTSLADEVNCPICQGTLREPVTIDCGHNFCRACLTRYCEIPGPDLEESPTCPLCKEPFRPGSFRP
B2: RNF149 RING domain (UniProt Q8NC42); chain EKGIDVDAENCAVCIENFKVKDIIRILPCKHIFHRICIDPWLLDHRTCPMCKLDVIKALGYW
B3: PHF7 RING domain (UniProt Q9BWX1); chain IQHGHVGEESCILCCEDLSQQSVENIQSPCCSQAIYHRKCIQKYAHTSAKHFFKCPQCNNRKEFPQEML
B4: TRIM52 RING domain (UniProt Q96A61); chain PMQTLQEEAVCAICLDYFKDPVSISCGHNFCRGCVTQLWSKEDEEDQNEEEDEWEEEEDEEAV
Sequence	lacZ reporter activity
B1 (TRIM10 RING domain)	0
KIKDLNEHIVCCLCAGYFVDATTITECLHTFCKSCIVKYLQTSKYCPMCNIKIHETQPLL (PCGF1 RING domain (UniProt Q9BSM1))	0
KRQCSDVDDICSICQAEFQKPILLICQHIFCEECMTLWFNREKTCPLCRTVISDHINKW (RNFT1 RING domain (UniProt Q5M7Z0))	0
B2 (RNF149 RING domain)	0
B3 (PHF7 RING domain)	0
B4 (TRIM52 RING domain)	0
SYEDKSNDFVCPICFDMIEEAYMTKCGHSFCYKCIHQSLEDNNRCPKCNYVVDNIDHLY (COP1 RING domain (UniProt Q8NHY2))	0

For quick reference, copied from above (sample 3):
Strand	E-score
CTGAATGC	-0.0242
CAACGGAG	0.098
